Measured values from different studies.
Protocols differ between the studies behind these lines. ± marks the error that the study gave.
Organism: Plasmodium falciparum

N[C@@H](CCC(=O)N[C@@H](CCC(=O)N(O)c1ccc(Br)cc1)C(=O)NCC(=O)O)C(=O)O gave an IC50 of about 70000 nM (blood-stage growth, Giemsa-stained smears; 3D7; 48 h).
With CCCCN=Cc1[nH]c(-c2ccc[nH]2)cc1OC the IC50 was 210 nM (parasite growth, SYBR Green I fluorescence; D6, chloroquine-sensitive).
CC1=N[C@H](C)Cc2c(-c3ccc(Cl)cc3)ccc(O)c21 gave an IC50 of 21900 nM (parasite growth, SYBR Green; NF54; 96 h, blood stage).
For CCC1=C(C)C(c2ccc[nH]2)=NC1=CNC12CC3CC(CC(C3)C1)C2, the IC50 was 19 nM (parasite growth, SYBR Green I fluorescence; D6, chloroquine-sensitive).
The IC50 of O=C(Nc1ccccc1O)c1ccc(-c2ccc(Cl)cc2Cl)o1 is reported as 920 nM (parasite growth; NF54; 72 h, blood stage).
CNC(=O)CNc1cnc2ccc(-c3ccc(OC)c(OC)c3)cc2n1 gave an IC50 of 118 ± 55 nM (parasite growth; 3D7).
For N#Cc1c(-c2cccs2)[n+]([O-])c2ccc(Cl)cc2[n+]1[O-], the IC50 was 7410 ± 200 nM (parasite growth, [3H]hypoxanthine incorporation; 3D7 chloroquine-sensitive).
For Cc1cc(N2CCC(C#N)(C3(C)CC3)C2=O)cc(C(=O)NCc2cc(F)cc(-c3cnn(C)c3)c2)n1 (racemic), the IC50 was 20 nM (parasite growth, [3H]hypoxanthine incorporation; K1; 72 h).
O=C(C1CCN(c2nnnn2-c2ccc(F)cc2)CC1)N1CCCc2ccccc21 gave an IC50 of 4300 nM (parasite growth, SYBR Green; 3D7; 72 h, blood stage).
With CNC(=O)c1ccc(-c2cnn3ccc(C(=O)N(c4ccc(C#N)cn4)C(C)(C)C)cc23)cc1 the IC50 was 126 ± 115 nM (parasite growth; 3D7).
With C#CCOc1cc(C(=O)C2=C(C)C(=O)c3ccccc3C2=O)ccc1[N+](=O)[O-] the IC50 was 417 ± 222 nM (parasite growth, SYBR Green; Dd2; 72 h, synchronized ring stage).
CC1=CC(=CNC2CCCCCC2)N=C1c1ccc[nH]1 has an IC50 of 2110 nM (parasite growth, SYBR Green I fluorescence; D6, chloroquine-sensitive).
COc1ccc2c(c1)C1CC(C)(N2)c2c(C)nc3ccc(OC)cc3c21 (stereo not shown) gave an IC50 of 225.5 ± 1.7 nM (parasite growth, SYBR green I; 3D7).
O=C(CCc1ccc[nH]1)NCC(=O)NC12CC3CC(CC(C3)C1)C2 gave an IC50 of over 2500 nM (parasite growth, SYBR Green I fluorescence; D6, chloroquine-sensitive).
For CC1C=CC=CC(C)C2C=CC3CC(C)(O)C(O[N+](=O)[O-])C(C)C3C2C(=O)C(Cl)(Cl)C(=O)C(C)C(=O)O1 (stereo not shown), the IC50 was 0.9 nM (parasite growth, ELISA; 3D7; blood stage).
For CCC1=C(C)C(c2ccc[nH]2)=NC1=CNC1CCCCCC1, the IC50 was 150 nM (parasite growth, SYBR Green I fluorescence; D6, chloroquine-sensitive).
COc1cc(O)c(-c2cc(-c3cc(-c4c(O)cc(OC)c5c4C[C@@H](C)N[C@@H]5C)c4cc(C)cc(OC)c4c3O)c(O)c3c(OC)cc(C)cc23)c2c1[C@@H](C)N[C@H](C)C2 has an IC50 of 88 nM (parasite growth, SYBR Green; NF54; 96 h, blood stage).
CC1=CC(=CNC23CC4CC(CC(C4)C2)C3)N=C1c1ccc[nH]1 has an IC50 of 106 nM (parasite growth, SYBR Green I fluorescence; D6, chloroquine-sensitive).
The IC50 of O=C(O)[C@@H]1Cc2c([nH]c3ccccc23)[C@@H](c2ccc(Br)cc2Cl)N1 is reported as 320 ± 60 nM (parasite growth; Dd2; 72 h).

Repeated from above:
For CCC1=C(C)C(c2ccc[nH]2)=NC1=CNC1CCCCCC1, the IC50 was 150 nM (parasite growth, SYBR Green I fluorescence; D6, chloroquine-sensitive).
COc1cc(O)c(-c2cc(-c3cc(-c4c(O)cc(OC)c5c4C[C@@H](C)N[C@@H]5C)c4cc(C)cc(OC)c4c3O)c(O)c3c(OC)cc(C)cc23)c2c1[C@@H](C)N[C@H](C)C2 has an IC50 of 88 nM (parasite growth, SYBR Green; NF54; 96 h, blood stage).
